Assay results pooled from the literature.
Each line is one published result; not all experiments were run side by side. Numbers after ± are the reported error.
Cell line: HepG2

CCC(=[NH+][Pt-2]1([Cl])([O]C(=O)CC(C)C)([O]C(=O)CC(C)C)[NH]CCC[NH]1)N(C)CCNc1c2ccccc2[nH+]c2ccccc12.O=[N+]([O-])O.O=[N+]([O-])O  IC50 (cell growth or viability, MTS; 72 h): 0.016 µM
Clc1ccnc2c1ccc1c(Cl)ccnc12.[Co+2].[O-]c1c(I)cc(I)c2cccnc12.[O-]c1c(I)cc(I)c2cccnc12  IC50 (cell growth or viability, MTT; 48 h): 38.1 µM
O=C1CS/C(=N\N=C2/C(=O)N(CCn3ncc4c(=O)[nH]cnc43)c3ccc(Cl)cc32)N1  IC50 (cell growth or viability, SRB; 72 h): 2.43 µg/mL
CCCCN(C)CC(O)Cn1c2ccc(Br)cc2c2cc(Br)ccc21 (stereo not shown)  IC50 (cell growth or viability): 2.61 µM
Cc1ccc(C(C)C)cc1.Cc1ccc(C(C)C)cc1.Cc1ccc(C(C)C)cc1.Cc1ccc(C(C)C)cc1.O=S(=O)(O)C(F)(F)F.O=S(=O)(O)C(F)(F)F.O=S(=O)(O)C(F)(F)F.O=S(=O)(O)C(F)(F)F.c1ccc2c3c4ccccc4c(c2c1)-c1cn(nn1)-c1cc[n+](cc1)[Ru-]1[O]c2c4ccccc4c4c5c(c6ccccc6c(c25)=[O+]1)=[O+][Ru-]([O]4)[n+]1ccc(cc1)-n1cc(nn1)-c1c2ccccc2c(c2ccccc12)-c1cn(nn1)-c1cc[n+](cc1)[Ru-]1[O]c2c4ccccc4c4c5c(c6ccccc6c(c25)=[O+]1)=[O+][Ru-]([O]4)[n+]1ccc(cc1)-n1cc-3nn1  IC50 (cell growth, MTT; 24 h, 20 µM preincubated in medium 48 h at 37 °C): 13.4 ± 2.18 µM
CC(C)CN1C(=O)CS/C1=N\N=C\c1cccc2cc3ccccc3nc12  IC50 (cell growth or viability, MTT; 48 h): > 50 µM
O=S(=O)(c1ccc2c(c1)OCO2)n1cc(CCCCN2CCC(=C(c3ccc(F)c(F)c3)c3ccc(F)c(F)c3)CC2)nn1  IC50 (cell growth or viability, ATP luminescence; 48 h): 2.65 µM
O=C1CS/C(=N\N=C\c2cccc3cc4ccccc4nc23)N1c1ccc([N+](=O)[O-])cc1  IC50 (cell growth or viability, MTT; 48 h): > 50 µM
CC(C)=CC1OC(C)(C)C2C=C3C(=O)C(Cl)=CC(O)C3C3C(O)C4OC4C(=O)C132 (stereo not shown)  IC50 (cell growth or viability, MTS): 7.32 µM
CCOC(=O)/C=C1\S/C(=N\N=C\c2cccc3cc4ccccc4nc23)N(c2cccc(OC)c2)C1=O  IC50 (cell growth or viability, MTT; 48 h): > 50 µM
Nc1nc(=O)n(C2CC(O)C(CO)O2)cc1F (stereo not shown)  IC50 (cell growth or viability): > 10 µM
Cc1ccc(-c2ccc(C)cn2)nc1.[Co+2].[O-]c1c(I)cc(Cl)c2cccnc12.[O-]c1c(I)cc(Cl)c2cccnc12  IC50 (cell growth or viability, MTT; 48 h): 23.6 µM
CCC(=[NH+][Pt-2]1([OH])([OH])([Cl])[NH]CCC[NH]1)N(C)CCNc1c2ccccc2[nH+]c2ccccc12.O=[N+]([O-])O.O=[N+]([O-])O  IC50 (cell growth or viability, MTS; 72 h): 0.0272 µM
O=C1O[C@H]([C@@H](O)CO)C(O)=C1O[C@H]1O[C@H](CO)[C@@H](O)[C@H](O)[C@H]1O  IC50 (cell growth or viability): > 10 µM
CNS(=O)(=O)Nc1nccc(Cc2c(C)c3ccc(Oc4ncccc4F)cc3oc2=O)c1F  IC50 (cell viability, CellTiter-Glo; 7 days): 0.00472 µM
COc1cccc(N2C(=O)CS/C2=N\N=C\c2cccc3cc4ccccc4nc23)c1  IC50 (cell growth or viability, MTT; 48 h): 43.4 µM
NC1=C(Cl)C(=O)c2ccccc2C1=O  IC50 (cell growth or viability, MTT): 12.4 µM
Cc1ccc2c(c1C#Cc1ccc(O)cc1)C(c1ccc(O)cc1)(c1ccc(O)cc1)c1cc(O)ccc1-2  IC50 (cell growth or viability, MTT; 48 h): 12.2 µM
c1ccc(-c2ccnc3c2ccc2c(-c4ccccc4)ccnc23)cc1  IC50 (cell growth or viability, MTT; 48 h): > 50 µM
Cc1nc(CN(C)c2ncnc3c2cnn3CCO)cs1  IC50 (cytotoxicity, MTT): > 50 µM
CCOC(=O)/C=C1\S/C(=N\N=C\c2cccc3cc4ccccc4nc23)N(c2ccc(F)cc2)C1=O  IC50 (cell growth or viability, MTT; 48 h): > 50 µM
Oc1cccc2c1[nH]c1c(C3=CC4(O)CCC=CCCCCN5CCC3C3(CC6C=CCCCCN6C43)C5)nccc12 (single isomer, unassigned; (+))  IC50 (cell growth or viability, neutral red; 48 h): 0.51 µg/mL
O=C1CS/C(=N\N=C\c2cccc3cc4ccccc4nc23)N1c1ccc(F)cc1  IC50 (cell growth or viability, MTT; 48 h): 43.8 µM
Nc1ncn([C@@H]2O[C@H](CO)[C@@H](O)[C@H]2O)c(=O)n1  IC50 (cell growth or viability): > 10 µM
O=C(Nc1ccc(F)cc1)NC1CCN(c2ncnc3nc[nH]c23)C1 (stereo not shown)  IC50 (cytotoxicity, MTT): > 50 µM
O=C(O)c1ccc(-c2ccc(O)cc2)c2c1C=C(c1ccc(O)cc1)OC2(c1ccc(O)cc1)c1ccc(O)cc1  IC50 (cell growth or viability, MTT; 48 h): 10.3 µM
Cc1ccc2c(Br)cc(Br)c([O-])c2n1.Cc1ccc2c(Br)cc(Br)c([O-])c2n1.[Co+2].c1cnc2c(c1)ccc1cccnc12  IC50 (cell growth or viability, MTT; 48 h): 11 µM
CCOc1cncc(-c2ccc(NC(=O)C3(c4ccnc(NS(=O)(=O)C5CC5)n4)CCOCC3)nc2)n1  IC50 (cell growth, CellTiter-Glo; 72 h): 10 µM
COc1ccnc(-c2cc(OC)ccn2)c1.Cc1ccc2c(Cl)cc(Cl)c([O-])c2n1.Cc1ccc2c(Cl)cc(Cl)c([O-])c2n1.[Co+2]  IC50 (cell growth or viability, MTT; 48 h): 7.09 µM
COCCN(C)CC(=O)NC(Cc1ccc(-c2ccccc2)cc1)B(O)O (stereo not shown)  IC50 (cell growth; 72 h): 1.35 µM
NC[C@H]1O[C@H](O[C@H]2[C@H](O)[C@@H](O[C@H]3O[C@H](CO)[C@@H](O)[C@H](N)[C@H]3O)[C@H](N)C[C@@H]2N)[C@H](N)C[C@@H]1O  IC50 (cell growth or viability): > 10 µM
O=C1CS/C(=N\N=C\c2cccc3cc4ccccc4nc23)N1c1ccccc1  IC50 (cell growth or viability, MTT; 48 h): > 50 µM
Cc1ccc(-c2ccc(C)cn2)nc1  IC50 (cell growth or viability, MTT; 48 h): > 50 µM
CCN(CC)CCOC(=O)c1ccc(NC2OC(CO)C(O)C(O)C2O)cc1 (stereo not shown)  IC50 (cell growth or viability): > 10 µM
NC1=C(Cl)C(=O)c2cccc([N+](=O)[O-])c2C1=O  IC50 (cell growth or viability, MTT): 11.2 µM
CCCCCCCCCCCCCCCCCC(=O)[O][Pt-2]1([OH])([Cl])([NH+]=C(CC)N(C)CCNc2c3ccccc3[nH+]c3ccccc23)[NH]CCC[NH]1.O=[N+]([O-])O.O=[N+]([O-])O  IC50 (cell growth or viability, MTS; 72 h): 0.207 µM
COc1ccc2c(c1)/C(=N/NC(N)=S)C(=O)N2CCn1cnc2c(N)ncnc21  IC50 (cell growth or viability, SRB; 72 h): 12.2 µg/mL
NC(=O)c1ccc(-c2ccccc2Cl)c2c3c([nH]c12)CC[C@H](N)C3  IC50 (cell growth or viability): 0.0193 µM
Oc1ccc(C#Cc2cccc3c2C(c2ccc(O)cc2)(c2ccc(O)cc2)c2cc(O)ccc2-3)cc1  IC50 (cell growth or viability, MTT; 48 h): 12.5 µM
NCC1OC(OC2C(N)CC(N)C(OC3OC(CO)C(O)C(N)C3O)C2O)C(N)C(O)C1O (stereo not shown)  IC50 (cell growth or viability): > 10 µM
[Co+2].[O-]c1c(I)cc(I)c2cccnc12.[O-]c1c(I)cc(I)c2cccnc12.c1cnc2c(c1)ccc1cccnc12  IC50 (cell growth or viability, MTT; 48 h): 40.1 µM
CCOC(=O)/C=C1\S/C(=N\N=C\c2cccc3cc4ccccc4nc23)N(c2ccc([N+](=O)[O-])cc2)C1=O  IC50 (cell growth or viability, MTT; 48 h): > 50 µM
Cc1ccc(C(C)C)cc1.Cc1ccc(C(C)C)cc1.Cc1ccc(C(C)C)cc1.Cc1ccc(C(C)C)cc1.O=S(=O)(O)C(F)(F)F.O=S(=O)(O)C(F)(F)F.O=S(=O)(O)C(F)(F)F.O=S(=O)(O)C(F)(F)F.c1ccc2c3c4ccccc4c(c2c1)-c1cn(nn1)-c1cc[n+](cc1)[Ru-]1[O]c2cc4c(cc2=[O+]1)[O][Ru-]([O+]=4)[n+]1ccc(cc1)-n1cc(nn1)-c1c2ccccc2c(c2ccccc12)-c1cn(nn1)-c1cc[n+](cc1)[Ru-]1[O]c2cc4c(cc2=[O+]1)[O][Ru-]([O+]=4)[n+]1ccc(cc1)-n1cc-3nn1  IC50 (cell growth or viability, MTT; 24 h): > 20 µM
